Measurements of several laboratories.
± gives the spread as reported.

| SMILES | organism | test | system | conditions | EC50 [µM] |
| --- | --- | --- | --- | --- | --- |
| COc1ccc(NC(=O)N2CCCCN3[C@H](CO)[C@H](c4ccc(C#Cc5ccccc5)cc4)[C@@H]3C2)cc1 | Plasmodium cynomolgi | liver-stage small forms (hypnozoites) | primary rhesus hepatocytes, M strain | – | 3.34 |
| CCCn1/c(=N/C(=O)c2cccc(C(N)=O)c2)[nH]c2ccccc21 | Plasmodium berghei | liver stage parasite load, inhibitor, luciferase | HepG2 | compound added 4 h post infection | 11 |
| CCCC(=O)O[C@H]1CC[C@]2(C)[C@H]3CC[C@@H]4C5=CC(C)(C)CC[C@]5(C(=O)O)CC[C@@]4(C)[C@]3(C)CC[C@H]2C1(C)C | HIV-1 IIIB | viral replication, refers to: p24 antigen | MT-2 | day 4 | > 10 |
| CCCCCCc1cn([C@@H]2O[C@H](CO)[C@@H](O)[C@H]2O)c2ncnc(C)c12 | Leishmania infantum | parasite growth, imaging | mouse Macrophage | 5 days, intracellular, amastigote | > 64 |
| C[C@H]1CN(c2n[nH]c3nc(N[C@H]4CC[C@H](NS(=O)(=O)CCC(F)(F)F)CC4)ncc23)CCO1 | Leishmania donovani | – | human PBMC, LV9 | – | 0.05 |
| Cc1ncnc2c1c(/C=C/c1ccccc1)cn2[C@@H]1O[C@H](CO)[C@@H](O)[C@H]1O | Leishmania infantum | parasite growth, imaging | mouse Macrophage | 5 days, intracellular, amastigote | 3.27 |
| O=[N+]([O-])c1cn2c(n1)O[C@@H](COc1ccc(-c3ccc(F)cc3)nc1)CC2 | Leishmania panamensis | parasite growth | mouse Peritoneal macrophage | 72 h, intracellular, amastigote | 0.77 |
| O=C(NCCN1CCCC1)c1cc(-c2cccs2)nc2ccccc12 | Enterovirus D68 | cytopathic effect | RD, US/KY/14-18953 | bound over five strains | < 1 |
| CCc1nn(C)c2nc(-c3ccc(C(=O)O)cc3)nc(NCc3ccc(F)cc3)c12 | Cryptosporidium parvum | parasite growth, immunofluorescence microscopy | HCT-8, Iowa | 48 h post infection, compound added at 3 h | 1.8 |
| CC(C)=Cc1cn([C@@H]2O[C@H](CO)[C@@H](O)[C@H]2O)c2ncnc(C)c12 | Leishmania infantum | parasite growth, imaging | mouse Macrophage | 5 days, intracellular, amastigote | > 64 |
| COc1ccc(NC(=O)N2CCCCN3[C@H](CN(C)C)[C@H](c4ccc(C#Cc5ccccc5)cc4)[C@@H]3C2)cc1 | Plasmodium cynomolgi | liver-stage small forms (hypnozoites) | primary rhesus hepatocytes, M strain | – | 0.933 |
| CCc1cn([C@@H]2O[C@H](CO)[C@@H](O)[C@H]2O)c2ncnc(C)c12 | Leishmania infantum | parasite growth, imaging | mouse Macrophage | 5 days, intracellular, amastigote | 1.79 |
| Cc1nc(CN)cc2c1[nH]c1ccccc12 | HIV-2 | cytopathic effect | MT4, ROD | 5 days | > 100 |
| CCCCC#Cc1cn([C@@H]2O[C@H](CO)[C@@H](O)[C@H]2O)c2ncnc(C)c12 | Leishmania infantum | parasite growth, imaging | mouse Macrophage | 5 days, intracellular, amastigote | 2.38 |
| CC(C)C(=O)O[C@H]1CC[C@]2(C)[C@H]3CC[C@@H]4C5=CC(C)(C)CC[C@]5(C(=O)O)CC[C@@]4(C)[C@]3(C)CC[C@H]2C1(C)C | HIV-1 IIIB | viral replication, refers to: p24 antigen | MT-2 | day 4 | > 10 |
| Nc1ncnc2c1ncn2CCOCP(=O)(O)O | HIV-2 | giant cell formation | CEM, ROD | 96 h | 7 ± 1.1 |
| Cc1ncnc2c1c(Cl)cn2[C@@H]1O[C@H](CO)[C@@H](O)[C@H]1O | Leishmania infantum | parasite growth, imaging | mouse Macrophage | 5 days, intracellular, amastigote | 3 |
| CC(C)CC(=O)O[C@H]1CC[C@]2(C)[C@H]3CC[C@@H]4C5=CC(C)(C)CC[C@]5(C(=O)O)CC[C@@]4(C)[C@]3(C)CC[C@H]2C1(C)C | HIV-1 IIIB | viral replication, refers to: p24 antigen | MT-2 | day 4 | > 10 |
| COc1cc(NC(C)CCCN)c2ncccc2c1 (stereo not drawn) | HIV-2 | cytopathic effect | MT4, ROD | 5 days | > 100 |
| Cc1ncnc2c1c(C1=CCCC1)cn2[C@@H]1O[C@H](CO)[C@@H](O)[C@H]1O | Leishmania infantum | parasite growth, imaging | mouse Macrophage | 5 days, intracellular, amastigote | > 64 |
| N=C(N)N | Enterovirus D68 | cytopathic effect, inhibitor, neutral red uptake | RD cells, Fermon | 33 °C, 25 mM MgCl2 | 91 ± 11 |

Repeated from above:
| SMILES | organism | test | system | conditions | EC50 [µM] |
| --- | --- | --- | --- | --- | --- |
| Cc1nc(CN)cc2c1[nH]c1ccccc12 | HIV-2 | cytopathic effect | MT4, ROD | 5 days | > 100 |
| COc1ccc(NC(=O)N2CCCCN3[C@H](CO)[C@H](c4ccc(C#Cc5ccccc5)cc4)[C@@H]3C2)cc1 | Plasmodium cynomolgi | liver-stage small forms (hypnozoites) | primary rhesus hepatocytes, M strain | – | 3.34 |
